Results gathered from unrelated publications.
Every numbered part comes from another study and shows a few of its results, in no order.
UniProt P42336, sequence (whole entry, unmodified, looked up): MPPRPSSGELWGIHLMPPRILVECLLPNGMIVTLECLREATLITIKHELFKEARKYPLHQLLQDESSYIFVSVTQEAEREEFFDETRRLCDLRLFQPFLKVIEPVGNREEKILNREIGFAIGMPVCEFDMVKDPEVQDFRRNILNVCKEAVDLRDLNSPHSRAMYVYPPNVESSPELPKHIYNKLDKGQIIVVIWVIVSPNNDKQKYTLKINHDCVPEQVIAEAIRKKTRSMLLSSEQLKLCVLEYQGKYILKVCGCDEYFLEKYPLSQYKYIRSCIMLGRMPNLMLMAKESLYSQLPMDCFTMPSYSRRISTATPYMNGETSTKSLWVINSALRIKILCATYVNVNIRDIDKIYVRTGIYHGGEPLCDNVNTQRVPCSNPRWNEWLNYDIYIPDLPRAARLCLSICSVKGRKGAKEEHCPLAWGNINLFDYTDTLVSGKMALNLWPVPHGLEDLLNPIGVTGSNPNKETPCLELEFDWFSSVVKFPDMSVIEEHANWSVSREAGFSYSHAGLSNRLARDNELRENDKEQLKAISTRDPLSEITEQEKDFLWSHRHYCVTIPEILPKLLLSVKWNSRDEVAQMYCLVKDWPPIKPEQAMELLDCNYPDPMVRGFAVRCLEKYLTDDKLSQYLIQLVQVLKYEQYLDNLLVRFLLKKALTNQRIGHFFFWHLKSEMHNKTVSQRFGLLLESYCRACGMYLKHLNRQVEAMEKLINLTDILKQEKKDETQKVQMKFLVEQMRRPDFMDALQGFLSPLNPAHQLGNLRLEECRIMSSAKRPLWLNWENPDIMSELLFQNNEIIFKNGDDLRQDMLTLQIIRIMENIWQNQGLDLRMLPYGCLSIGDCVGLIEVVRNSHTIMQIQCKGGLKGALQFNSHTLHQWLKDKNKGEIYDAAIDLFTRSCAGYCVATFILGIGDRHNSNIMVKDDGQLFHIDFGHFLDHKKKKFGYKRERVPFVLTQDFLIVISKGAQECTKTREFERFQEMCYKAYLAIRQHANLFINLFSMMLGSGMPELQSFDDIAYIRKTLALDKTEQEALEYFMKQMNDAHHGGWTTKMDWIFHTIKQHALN
UniProt P49137, sequence (whole entry, looked up): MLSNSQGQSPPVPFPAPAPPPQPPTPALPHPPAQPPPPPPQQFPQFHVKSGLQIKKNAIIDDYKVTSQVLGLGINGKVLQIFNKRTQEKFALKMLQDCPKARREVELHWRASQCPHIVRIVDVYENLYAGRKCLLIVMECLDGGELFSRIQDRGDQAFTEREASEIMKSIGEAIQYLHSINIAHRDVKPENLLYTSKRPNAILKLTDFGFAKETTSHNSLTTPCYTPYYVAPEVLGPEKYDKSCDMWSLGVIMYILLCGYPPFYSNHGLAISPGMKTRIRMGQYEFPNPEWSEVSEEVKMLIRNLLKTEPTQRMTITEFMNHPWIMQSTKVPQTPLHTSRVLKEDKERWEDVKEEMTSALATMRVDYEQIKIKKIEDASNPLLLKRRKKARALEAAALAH
UniProt Q86YV6, sequence (whole entry, looked up): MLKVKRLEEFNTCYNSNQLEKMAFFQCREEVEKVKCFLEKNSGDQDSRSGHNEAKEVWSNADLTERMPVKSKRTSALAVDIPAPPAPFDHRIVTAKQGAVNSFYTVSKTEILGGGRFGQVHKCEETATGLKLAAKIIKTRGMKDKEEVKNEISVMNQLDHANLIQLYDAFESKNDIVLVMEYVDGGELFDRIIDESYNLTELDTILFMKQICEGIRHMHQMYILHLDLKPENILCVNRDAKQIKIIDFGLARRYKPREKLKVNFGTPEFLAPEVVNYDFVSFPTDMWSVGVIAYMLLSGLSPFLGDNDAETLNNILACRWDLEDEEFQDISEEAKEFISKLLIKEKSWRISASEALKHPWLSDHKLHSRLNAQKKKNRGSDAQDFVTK
UniProt Q9P2K8, sequence (whole entry, unmodified, looked up): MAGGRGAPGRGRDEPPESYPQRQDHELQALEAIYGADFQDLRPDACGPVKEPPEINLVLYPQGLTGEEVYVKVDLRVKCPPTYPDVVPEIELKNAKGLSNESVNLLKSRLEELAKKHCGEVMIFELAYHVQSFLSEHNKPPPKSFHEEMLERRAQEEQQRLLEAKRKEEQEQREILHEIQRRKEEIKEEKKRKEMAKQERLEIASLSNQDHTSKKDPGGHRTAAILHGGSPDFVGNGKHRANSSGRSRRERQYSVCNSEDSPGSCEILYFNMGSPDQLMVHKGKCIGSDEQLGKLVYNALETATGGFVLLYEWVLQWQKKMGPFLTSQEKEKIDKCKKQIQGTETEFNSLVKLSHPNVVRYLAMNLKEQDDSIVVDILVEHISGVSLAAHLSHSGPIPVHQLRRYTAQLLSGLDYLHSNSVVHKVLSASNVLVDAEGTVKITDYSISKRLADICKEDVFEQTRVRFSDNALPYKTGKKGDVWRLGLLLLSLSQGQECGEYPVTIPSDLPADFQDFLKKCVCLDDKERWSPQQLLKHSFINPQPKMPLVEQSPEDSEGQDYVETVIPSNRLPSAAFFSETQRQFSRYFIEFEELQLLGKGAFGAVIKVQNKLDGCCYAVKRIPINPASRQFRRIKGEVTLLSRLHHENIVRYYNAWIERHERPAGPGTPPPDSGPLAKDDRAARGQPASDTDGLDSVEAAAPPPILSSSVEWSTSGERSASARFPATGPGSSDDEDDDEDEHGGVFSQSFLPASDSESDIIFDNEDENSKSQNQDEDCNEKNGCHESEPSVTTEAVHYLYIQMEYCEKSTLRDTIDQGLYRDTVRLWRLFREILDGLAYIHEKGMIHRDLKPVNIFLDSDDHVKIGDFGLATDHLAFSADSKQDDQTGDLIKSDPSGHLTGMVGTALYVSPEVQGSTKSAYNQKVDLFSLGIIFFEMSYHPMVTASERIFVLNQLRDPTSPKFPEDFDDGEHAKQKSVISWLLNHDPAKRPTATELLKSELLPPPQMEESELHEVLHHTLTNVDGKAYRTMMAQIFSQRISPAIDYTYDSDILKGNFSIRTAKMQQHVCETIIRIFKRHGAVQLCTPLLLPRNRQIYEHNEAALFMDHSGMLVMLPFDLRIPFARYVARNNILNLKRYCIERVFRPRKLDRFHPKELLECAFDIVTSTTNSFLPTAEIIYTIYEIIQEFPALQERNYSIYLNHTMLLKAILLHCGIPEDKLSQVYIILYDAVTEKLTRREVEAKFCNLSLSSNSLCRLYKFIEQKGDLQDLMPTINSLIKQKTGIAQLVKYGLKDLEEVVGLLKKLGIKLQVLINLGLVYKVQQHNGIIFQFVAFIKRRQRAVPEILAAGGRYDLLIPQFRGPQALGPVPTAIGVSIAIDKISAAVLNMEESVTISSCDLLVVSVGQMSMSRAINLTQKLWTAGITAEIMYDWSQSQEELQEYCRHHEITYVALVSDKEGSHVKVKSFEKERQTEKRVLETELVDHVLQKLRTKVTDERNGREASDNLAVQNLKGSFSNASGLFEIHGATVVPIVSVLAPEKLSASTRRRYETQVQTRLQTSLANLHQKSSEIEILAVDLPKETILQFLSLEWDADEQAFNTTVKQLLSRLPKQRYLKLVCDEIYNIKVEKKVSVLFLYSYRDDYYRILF
UniProt Q04771, sequence (whole entry, looked up): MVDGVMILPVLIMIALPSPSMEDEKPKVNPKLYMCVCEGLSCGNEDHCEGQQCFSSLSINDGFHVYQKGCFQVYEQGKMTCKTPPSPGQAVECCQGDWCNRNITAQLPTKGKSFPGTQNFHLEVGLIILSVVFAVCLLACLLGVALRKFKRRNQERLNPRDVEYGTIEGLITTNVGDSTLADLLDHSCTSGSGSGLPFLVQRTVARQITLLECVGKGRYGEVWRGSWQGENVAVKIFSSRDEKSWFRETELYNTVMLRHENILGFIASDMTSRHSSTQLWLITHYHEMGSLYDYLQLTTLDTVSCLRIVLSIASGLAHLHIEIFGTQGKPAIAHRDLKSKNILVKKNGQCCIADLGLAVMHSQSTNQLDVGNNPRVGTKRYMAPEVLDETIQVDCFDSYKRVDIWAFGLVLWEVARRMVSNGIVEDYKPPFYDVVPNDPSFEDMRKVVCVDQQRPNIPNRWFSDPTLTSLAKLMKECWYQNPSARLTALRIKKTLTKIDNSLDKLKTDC
UniProt Q9H2K8, sequence (whole entry, looked up): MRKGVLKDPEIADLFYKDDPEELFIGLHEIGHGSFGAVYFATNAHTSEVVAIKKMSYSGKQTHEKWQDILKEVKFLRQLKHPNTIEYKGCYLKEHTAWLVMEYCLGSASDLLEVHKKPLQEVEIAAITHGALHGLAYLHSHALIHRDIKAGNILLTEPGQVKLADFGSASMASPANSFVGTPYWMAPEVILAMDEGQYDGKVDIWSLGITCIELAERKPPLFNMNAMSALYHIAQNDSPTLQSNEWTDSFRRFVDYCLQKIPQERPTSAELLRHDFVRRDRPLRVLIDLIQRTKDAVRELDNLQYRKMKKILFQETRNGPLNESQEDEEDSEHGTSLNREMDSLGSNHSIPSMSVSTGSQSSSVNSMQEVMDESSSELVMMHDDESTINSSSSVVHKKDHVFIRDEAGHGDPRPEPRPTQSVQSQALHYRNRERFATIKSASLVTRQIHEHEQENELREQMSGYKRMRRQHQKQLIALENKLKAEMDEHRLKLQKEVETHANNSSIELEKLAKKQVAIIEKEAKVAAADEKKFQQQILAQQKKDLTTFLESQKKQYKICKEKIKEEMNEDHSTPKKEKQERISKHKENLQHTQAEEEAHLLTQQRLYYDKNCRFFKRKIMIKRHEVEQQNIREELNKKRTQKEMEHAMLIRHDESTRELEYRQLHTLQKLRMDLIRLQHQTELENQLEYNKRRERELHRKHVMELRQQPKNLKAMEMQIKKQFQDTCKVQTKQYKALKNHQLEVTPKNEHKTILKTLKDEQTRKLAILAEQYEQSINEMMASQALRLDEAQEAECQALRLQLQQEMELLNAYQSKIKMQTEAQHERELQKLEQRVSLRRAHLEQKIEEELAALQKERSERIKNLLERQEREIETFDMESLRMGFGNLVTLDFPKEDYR

Block 1
Structure (SMILES): O=C(Nc1ccccc1)Nc1cccc(Oc2ccc3nccn3n2)c1
Concentration: 1 µM
Measurement: remaining binding
SIK3 (Homo sapiens, UniProt Q9Y2K2); competitive binding; QSK: 100%
EIF2AK4 (Homo sapiens, UniProt Q9P2K8, S808G); competitive binding panel; relative to: vehicle: 86%
MAPKAPK2 (Homo sapiens, UniProt P49137); competitive binding panel; relative to: vehicle: 100%
PIK3CA (Homo sapiens, UniProt P42336); competitive binding panel; relative to: vehicle: 100%
ACVR1 (Homo sapiens, UniProt Q04771); competitive binding panel; relative to: vehicle: 100%

Block 2
SMILES: CN([C@@H]1CCc2c(CC(=O)O)c3ccccc3n2C1)S(=O)(=O)c1ccc(F)cc1
Observed: cell-free assay
Technique: competition with immobilised ligand
Concentration: 1 µM
Measurement: remaining binding
MYLK4 (Homo sapiens, UniProt Q86YV6): 100%
MET (Homo sapiens, UniProt P08581, Y1235D): 100%
PIK3CA (Homo sapiens, UniProt P42336, E542K): 86%
PIK3CA (Homo sapiens, UniProt P42336, Q546K): 100%
EPHA8 (Homo sapiens, UniProt P29322): 100%
TAOK3 (Homo sapiens, UniProt Q9H2K8): 73%

Block 3
Cell line: mouse MPNST tumor cells
Technique: high-content immunofluorescence imaging
Item: nuclear SOX9
Concentration: 10 µM
Time: 12 h
Setting: mean of 2 replicates
Relative to: DMSO control
Reading: higher = more nuclear SOX9
Measurement: nuclear SOX9 intensity
COc1cc(N2CCN(C)CC2)ccc1Nc1ncc2c(n1)N(C)c1ccccc1C(=O)N2: 214 % of DMSO
COc1cc2c(cc1OC)CC(=O)N(CCCN(C)C[C@H]1Cc3cc(OC)c(OC)cc31)CC2: 98.1 % of DMSO
COC1CCC(C(=O)c2ccc3nc4c(cc3c2)CCCO4)CC1 (stereo not shown): 101 % of DMSO
COc1c(O[C@@H]2O[C@H](CO)[C@@H](O)[C@H](O)[C@H]2O)cc2c(c1OC)-c1ccc(SC)c(=O)cc1[C@@H](NC(C)=O)CC2: 112 % of DMSO
C1N2CN3CN1CN(C2)C3: 97.4 % of DMSO
CCOC(=O)c1ccc(CN(Cc2ccc(-c3cccc(S(C)(=O)=O)c3)cc2)S(=O)(=O)c2c(C)cc(C)cc2C)o1: 120 % of DMSO
CO/N=C(\C(=O)N[C@@H]1C(=O)N2C(C(=O)O)=C(COC(N)=O)CS[C@H]12)c1ccco1: 84 % of DMSO
Nc1nc(=O)[nH]cc1F: 96.5 % of DMSO
Cc1cc(C(=O)N2Cc3cnn(C)c3Nc3ccccc32)ccc1CNC(=O)N1CCC[C@H]1C(=S)N1CCCN(C)CC1: 97.7 % of DMSO

Block 4
Target: Ephrin type-B receptor 3 (EPHB3, Homo sapiens, UniProt P54753)
Observed: enzyme activity
Mode: inhibitor
Concentration: 0.5 µM
Relative to: control
Measurement: remaining activity
Construct (P54753 1-998): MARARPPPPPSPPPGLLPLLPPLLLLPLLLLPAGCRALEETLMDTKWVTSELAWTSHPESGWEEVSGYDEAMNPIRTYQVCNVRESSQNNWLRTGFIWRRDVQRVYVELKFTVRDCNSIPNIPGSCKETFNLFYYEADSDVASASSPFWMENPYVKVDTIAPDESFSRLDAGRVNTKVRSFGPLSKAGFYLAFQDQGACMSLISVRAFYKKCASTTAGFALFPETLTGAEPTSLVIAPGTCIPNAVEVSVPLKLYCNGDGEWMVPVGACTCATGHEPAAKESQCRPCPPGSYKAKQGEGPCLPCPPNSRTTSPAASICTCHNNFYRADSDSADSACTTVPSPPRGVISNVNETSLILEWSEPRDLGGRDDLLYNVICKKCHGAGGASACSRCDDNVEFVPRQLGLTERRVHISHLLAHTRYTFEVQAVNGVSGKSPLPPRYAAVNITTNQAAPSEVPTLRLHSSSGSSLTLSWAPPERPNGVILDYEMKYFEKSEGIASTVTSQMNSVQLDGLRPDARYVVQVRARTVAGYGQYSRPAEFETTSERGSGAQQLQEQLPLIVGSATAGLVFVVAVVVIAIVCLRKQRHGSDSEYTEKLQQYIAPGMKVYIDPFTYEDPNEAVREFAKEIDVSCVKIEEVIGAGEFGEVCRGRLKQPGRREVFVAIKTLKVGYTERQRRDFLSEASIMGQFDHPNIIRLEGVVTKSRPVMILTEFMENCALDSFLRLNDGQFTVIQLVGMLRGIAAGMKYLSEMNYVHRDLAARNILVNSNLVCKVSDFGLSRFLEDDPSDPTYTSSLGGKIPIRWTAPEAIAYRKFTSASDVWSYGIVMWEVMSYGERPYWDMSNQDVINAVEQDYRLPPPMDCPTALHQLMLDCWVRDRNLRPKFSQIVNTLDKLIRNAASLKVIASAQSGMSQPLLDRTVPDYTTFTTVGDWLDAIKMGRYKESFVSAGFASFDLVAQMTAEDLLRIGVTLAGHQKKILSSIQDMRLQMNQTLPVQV
Nc1ncnc2n[nH]c(Nc3ccc(F)cc3)c12: 87.7%
N#CC(C#N)=C(N)/C(C#N)=C/c1ccc(O)cc1: 99.5%
COc1ccc(CNC(=O)Nc2ncc([N+](=O)[O-])s2)cc1: 101%
O=C(CCCc1ccc(-c2ccccc2F)cc1)Nc1ccc(O)cc1: 96.5%
COc1cc2ncnc(Nc3ccc(Oc4ccccc4)cc3)c2cc1OC: 103%
Oc1ccc(-c2nc(-c3ccncc3)c(-c3ccc(F)cc3)[nH]2)cc1: 97.7%
Cc1cccc(-c2[nH]c(C(C)(C)C)nc2-c2ccc3c(c2)OCO3)n1: 103%
Cn1sc(=O)n(Cc2ccccc2)c1=O: 91.3%
COc1ccc(C(=O)Nc2sc3c(c2C(N)=O)CCCC3)cc1OC: 92.4%
COc1ccc(OC)c2c(=S)c3ccccc3[nH]c12: 91%
Cc1nc(-c2ccccc2)c(-c2ccncc2)o1: 99.2%
Cc1ccc(NC(=O)c2ccc(CN3CCN(C)CC3)cc2)cc1Nc1nc(-c2cccnc2)cs1: 80.9%
CCOC(=O)c1c(C)[nH]c(/C=C2\C(=O)Nc3ccccc32)c1C: 94.4%
O=S(=O)(c1cccc2cnccc12)N1CCCNCC1: 95.4%

Repeated from above (block 4):
O=C(CCCc1ccc(-c2ccccc2F)cc1)Nc1ccc(O)cc1: 96.5%
COc1cc2ncnc(Nc3ccc(Oc4ccccc4)cc3)c2cc1OC: 103%
Oc1ccc(-c2nc(-c3ccncc3)c(-c3ccc(F)cc3)[nH]2)cc1: 97.7%
Cc1cccc(-c2[nH]c(C(C)(C)C)nc2-c2ccc3c(c2)OCO3)n1: 103%
